Results collected from several papers.
Compare with care: the assays were run in different laboratories. Numbers after ± are the reported error.
MAPK8: Mitogen-activated protein kinase 8 (MAPK8, Homo sapiens, UniProt P45983)
PRKCD: Protein kinase C delta type (PRKCD, Homo sapiens, UniProt Q05655)

The chains behind the UniProt entries cited, without tags or fusion partners. Residues count along the entry.
UniProt Q05655, whole entry: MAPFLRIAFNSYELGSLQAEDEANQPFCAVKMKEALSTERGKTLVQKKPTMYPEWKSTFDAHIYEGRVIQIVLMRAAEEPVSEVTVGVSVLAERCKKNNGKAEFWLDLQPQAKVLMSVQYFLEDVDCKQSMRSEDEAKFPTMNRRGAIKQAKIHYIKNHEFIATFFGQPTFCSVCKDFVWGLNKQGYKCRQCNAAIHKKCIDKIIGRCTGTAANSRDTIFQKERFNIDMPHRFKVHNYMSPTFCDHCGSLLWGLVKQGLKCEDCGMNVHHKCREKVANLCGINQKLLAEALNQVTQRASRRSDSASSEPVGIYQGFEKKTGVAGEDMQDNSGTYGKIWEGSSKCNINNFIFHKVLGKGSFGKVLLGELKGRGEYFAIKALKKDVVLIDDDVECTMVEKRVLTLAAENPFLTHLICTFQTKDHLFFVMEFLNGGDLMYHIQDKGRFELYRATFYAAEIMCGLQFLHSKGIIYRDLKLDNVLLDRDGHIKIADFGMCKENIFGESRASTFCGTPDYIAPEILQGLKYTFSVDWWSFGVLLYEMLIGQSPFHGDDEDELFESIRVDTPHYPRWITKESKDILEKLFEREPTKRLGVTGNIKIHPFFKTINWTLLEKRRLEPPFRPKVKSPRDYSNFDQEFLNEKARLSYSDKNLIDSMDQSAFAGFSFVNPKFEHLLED
UniProt P29275, whole entry: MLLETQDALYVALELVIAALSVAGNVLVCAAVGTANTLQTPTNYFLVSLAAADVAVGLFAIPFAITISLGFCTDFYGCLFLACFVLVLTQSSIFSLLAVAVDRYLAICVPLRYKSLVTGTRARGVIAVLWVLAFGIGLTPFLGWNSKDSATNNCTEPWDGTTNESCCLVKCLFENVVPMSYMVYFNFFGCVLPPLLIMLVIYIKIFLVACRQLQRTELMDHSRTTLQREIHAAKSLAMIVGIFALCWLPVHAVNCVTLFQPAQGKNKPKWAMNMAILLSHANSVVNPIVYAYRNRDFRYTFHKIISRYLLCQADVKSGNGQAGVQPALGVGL
UniProt O75716, 13-305 limits assumed: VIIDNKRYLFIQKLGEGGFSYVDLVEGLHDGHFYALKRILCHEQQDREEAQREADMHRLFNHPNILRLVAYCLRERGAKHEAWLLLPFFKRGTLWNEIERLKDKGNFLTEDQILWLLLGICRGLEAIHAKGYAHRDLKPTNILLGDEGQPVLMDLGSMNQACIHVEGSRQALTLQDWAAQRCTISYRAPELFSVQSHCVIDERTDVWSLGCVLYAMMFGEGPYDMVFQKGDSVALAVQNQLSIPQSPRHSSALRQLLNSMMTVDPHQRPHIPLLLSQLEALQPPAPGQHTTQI
UniProt P13569, whole entry: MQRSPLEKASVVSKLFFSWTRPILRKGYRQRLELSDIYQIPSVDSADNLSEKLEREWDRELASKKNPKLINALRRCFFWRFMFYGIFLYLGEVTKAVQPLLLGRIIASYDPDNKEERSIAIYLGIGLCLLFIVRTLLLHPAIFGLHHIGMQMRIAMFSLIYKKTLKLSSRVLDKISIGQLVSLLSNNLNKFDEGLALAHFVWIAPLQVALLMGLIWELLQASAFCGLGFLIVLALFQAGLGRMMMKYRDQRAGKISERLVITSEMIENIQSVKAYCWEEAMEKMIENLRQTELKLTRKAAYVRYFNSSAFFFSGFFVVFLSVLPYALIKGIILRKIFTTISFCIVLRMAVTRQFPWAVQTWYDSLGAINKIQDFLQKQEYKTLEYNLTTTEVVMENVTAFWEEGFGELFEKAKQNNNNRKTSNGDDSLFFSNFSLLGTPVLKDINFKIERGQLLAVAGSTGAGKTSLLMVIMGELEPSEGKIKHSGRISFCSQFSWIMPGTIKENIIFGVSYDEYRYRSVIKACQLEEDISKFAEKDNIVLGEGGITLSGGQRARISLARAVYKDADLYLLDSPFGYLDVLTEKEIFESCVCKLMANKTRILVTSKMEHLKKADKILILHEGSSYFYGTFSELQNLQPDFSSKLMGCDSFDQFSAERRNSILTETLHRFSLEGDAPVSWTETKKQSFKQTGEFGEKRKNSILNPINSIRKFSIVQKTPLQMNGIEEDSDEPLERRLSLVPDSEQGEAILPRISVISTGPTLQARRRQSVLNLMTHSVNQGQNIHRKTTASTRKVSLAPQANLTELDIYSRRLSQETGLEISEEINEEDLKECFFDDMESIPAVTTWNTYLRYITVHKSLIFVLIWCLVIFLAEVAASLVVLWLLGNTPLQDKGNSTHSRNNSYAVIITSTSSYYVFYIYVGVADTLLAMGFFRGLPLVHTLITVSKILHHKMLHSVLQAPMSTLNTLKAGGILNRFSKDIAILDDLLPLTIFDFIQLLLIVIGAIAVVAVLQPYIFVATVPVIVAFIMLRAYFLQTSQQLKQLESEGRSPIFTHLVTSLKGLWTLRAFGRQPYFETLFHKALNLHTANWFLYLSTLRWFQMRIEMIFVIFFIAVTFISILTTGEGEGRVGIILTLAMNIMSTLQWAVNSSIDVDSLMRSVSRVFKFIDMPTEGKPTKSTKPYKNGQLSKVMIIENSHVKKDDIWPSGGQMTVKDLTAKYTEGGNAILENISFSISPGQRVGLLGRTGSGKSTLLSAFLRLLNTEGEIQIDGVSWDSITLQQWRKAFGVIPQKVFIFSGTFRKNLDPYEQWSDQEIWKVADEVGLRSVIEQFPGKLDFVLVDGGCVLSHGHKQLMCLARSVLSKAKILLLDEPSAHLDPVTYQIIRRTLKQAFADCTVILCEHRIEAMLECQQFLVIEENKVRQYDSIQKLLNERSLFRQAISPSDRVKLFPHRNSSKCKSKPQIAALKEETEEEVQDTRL
UniProt P22756, 31-920 isoform 4 limits assumed: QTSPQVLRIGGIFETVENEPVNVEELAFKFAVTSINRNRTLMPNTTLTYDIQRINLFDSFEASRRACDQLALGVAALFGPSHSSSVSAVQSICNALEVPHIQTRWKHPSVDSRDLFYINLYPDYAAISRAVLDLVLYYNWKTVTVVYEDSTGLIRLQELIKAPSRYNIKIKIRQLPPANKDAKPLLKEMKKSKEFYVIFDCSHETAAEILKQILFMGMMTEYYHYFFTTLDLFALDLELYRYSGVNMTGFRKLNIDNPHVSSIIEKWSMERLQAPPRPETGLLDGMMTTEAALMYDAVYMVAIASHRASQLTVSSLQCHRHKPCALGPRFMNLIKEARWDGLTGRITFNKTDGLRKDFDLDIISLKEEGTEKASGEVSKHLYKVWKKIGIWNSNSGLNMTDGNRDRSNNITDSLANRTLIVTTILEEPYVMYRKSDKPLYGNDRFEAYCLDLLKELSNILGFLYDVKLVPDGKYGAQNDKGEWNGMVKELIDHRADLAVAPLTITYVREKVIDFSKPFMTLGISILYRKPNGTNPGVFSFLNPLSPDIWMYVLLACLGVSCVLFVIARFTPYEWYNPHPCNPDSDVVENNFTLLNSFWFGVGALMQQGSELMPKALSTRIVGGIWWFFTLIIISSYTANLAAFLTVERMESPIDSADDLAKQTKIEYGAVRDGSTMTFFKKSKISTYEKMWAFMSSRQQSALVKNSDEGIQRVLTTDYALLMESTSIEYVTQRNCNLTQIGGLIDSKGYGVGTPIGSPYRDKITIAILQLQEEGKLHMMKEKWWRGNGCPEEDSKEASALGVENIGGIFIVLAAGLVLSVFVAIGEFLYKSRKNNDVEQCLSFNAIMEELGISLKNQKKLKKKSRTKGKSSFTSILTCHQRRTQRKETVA
UniProt Q9U419, whole entry: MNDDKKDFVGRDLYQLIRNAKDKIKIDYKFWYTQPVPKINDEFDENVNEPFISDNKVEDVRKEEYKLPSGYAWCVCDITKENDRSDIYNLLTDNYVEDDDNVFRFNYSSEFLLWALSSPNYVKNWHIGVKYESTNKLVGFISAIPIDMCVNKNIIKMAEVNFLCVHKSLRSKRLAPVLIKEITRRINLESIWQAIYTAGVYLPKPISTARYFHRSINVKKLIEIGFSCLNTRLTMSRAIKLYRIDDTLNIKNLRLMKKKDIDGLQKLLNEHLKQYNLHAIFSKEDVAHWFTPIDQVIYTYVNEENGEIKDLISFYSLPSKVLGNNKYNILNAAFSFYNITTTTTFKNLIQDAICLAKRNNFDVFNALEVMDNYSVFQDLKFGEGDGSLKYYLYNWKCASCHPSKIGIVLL
UniProt P42264, 32-919 limits assumed: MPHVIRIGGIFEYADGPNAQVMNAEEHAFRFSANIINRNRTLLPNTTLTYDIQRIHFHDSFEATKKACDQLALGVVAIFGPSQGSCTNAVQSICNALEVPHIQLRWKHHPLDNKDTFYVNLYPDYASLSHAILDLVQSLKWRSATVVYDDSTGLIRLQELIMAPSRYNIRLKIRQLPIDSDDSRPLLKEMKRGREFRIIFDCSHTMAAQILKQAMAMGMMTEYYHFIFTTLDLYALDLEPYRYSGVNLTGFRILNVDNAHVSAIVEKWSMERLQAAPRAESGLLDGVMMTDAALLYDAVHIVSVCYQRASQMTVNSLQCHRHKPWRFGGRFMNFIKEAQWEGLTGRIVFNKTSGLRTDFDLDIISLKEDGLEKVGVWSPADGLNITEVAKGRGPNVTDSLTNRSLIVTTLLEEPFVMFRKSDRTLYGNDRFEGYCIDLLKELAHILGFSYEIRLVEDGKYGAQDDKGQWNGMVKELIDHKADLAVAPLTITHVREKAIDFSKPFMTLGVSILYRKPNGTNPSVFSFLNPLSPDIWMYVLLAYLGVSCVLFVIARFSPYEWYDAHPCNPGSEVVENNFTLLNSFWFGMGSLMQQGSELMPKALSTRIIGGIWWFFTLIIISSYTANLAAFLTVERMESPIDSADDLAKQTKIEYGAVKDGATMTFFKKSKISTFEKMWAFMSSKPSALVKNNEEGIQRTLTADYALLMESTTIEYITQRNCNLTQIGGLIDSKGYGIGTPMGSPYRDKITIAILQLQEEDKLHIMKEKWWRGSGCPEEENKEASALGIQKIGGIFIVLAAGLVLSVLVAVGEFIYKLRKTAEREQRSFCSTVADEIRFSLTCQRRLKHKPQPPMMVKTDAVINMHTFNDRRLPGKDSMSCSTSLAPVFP
UniProt Q9F663, 25-293 limits assumed: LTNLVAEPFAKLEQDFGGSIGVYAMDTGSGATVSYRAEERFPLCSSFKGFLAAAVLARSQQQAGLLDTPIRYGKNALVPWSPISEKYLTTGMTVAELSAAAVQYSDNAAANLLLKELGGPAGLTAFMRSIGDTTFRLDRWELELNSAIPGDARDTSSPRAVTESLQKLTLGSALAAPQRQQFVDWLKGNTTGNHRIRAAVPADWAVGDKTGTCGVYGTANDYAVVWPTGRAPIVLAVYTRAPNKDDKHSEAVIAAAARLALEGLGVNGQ
UniProt P23975, whole entry: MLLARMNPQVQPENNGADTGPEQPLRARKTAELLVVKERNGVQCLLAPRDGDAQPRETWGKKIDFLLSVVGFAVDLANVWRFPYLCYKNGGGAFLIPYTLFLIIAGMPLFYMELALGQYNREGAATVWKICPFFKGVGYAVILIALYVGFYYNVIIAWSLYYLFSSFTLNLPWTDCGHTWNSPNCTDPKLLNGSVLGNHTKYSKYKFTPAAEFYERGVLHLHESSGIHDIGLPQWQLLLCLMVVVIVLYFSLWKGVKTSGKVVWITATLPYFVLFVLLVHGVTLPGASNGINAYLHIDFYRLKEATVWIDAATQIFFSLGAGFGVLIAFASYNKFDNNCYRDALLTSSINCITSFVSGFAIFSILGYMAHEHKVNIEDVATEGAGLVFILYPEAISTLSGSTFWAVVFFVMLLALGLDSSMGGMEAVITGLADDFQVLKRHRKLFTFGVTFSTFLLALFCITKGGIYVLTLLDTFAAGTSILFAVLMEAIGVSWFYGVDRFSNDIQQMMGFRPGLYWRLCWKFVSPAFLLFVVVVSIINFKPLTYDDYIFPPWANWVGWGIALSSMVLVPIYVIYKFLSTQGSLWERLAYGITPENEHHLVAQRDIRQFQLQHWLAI
UniProt Q9EP80, whole entry: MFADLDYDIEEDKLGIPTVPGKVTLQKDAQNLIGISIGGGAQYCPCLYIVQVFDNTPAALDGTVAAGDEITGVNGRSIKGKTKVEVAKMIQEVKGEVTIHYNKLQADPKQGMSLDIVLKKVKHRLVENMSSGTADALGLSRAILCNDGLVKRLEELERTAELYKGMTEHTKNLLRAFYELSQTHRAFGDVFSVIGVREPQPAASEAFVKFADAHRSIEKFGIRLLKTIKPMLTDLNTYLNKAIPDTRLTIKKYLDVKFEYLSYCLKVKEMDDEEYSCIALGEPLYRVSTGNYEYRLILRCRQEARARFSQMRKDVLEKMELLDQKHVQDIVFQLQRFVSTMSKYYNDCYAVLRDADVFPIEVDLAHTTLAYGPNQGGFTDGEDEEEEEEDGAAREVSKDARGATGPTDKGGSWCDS

SMILES | target | test | system | conditions | Ki
FC1CCN(c2ccc(-c3ccc4sc(-c5ccn[nH]5)cc4n3)cn2)CC1 | Alpha-synuclein, PD brain aggregates (SNCA, Homo sapiens, UniProt P37840) | binding | Parkinson's disease brain homogenate | added: [3H]asyn-44 1 nM | 0.032 µM
COC(=O)C1(C)C=C(C(=O)Nc2ccccc2)C(=O)CC1 (stereo not shown) | MAPK8 | D-peptide displacement, fluorescence polarization | – | – | > 200 µM
N#Cc1c(N)nc(SCc2ncc[nH]2)c(C#N)c1-c1cccc(O)c1 | ADORA2B (Homo sapiens, UniProt P29275) | radioligand displacement | HEK293 membranes | added: 25 nM [3H]NECA | 0.004 ± 0.0019 µM
COc1cc(Nc2ccnc3cc(-c4ccncc4)ccc23)cc(OC)c1OC | STK16 (Homo sapiens, UniProt O75716) | – | – | – | > 10 µM
O=C(CNc1ccc2ccccc2c1)N/N=C/c1ccc(C(=O)O)cc1 | CFTR (Homo sapiens, UniProt P13569) | apical chloride current, inhibitor | FRT cells expressing CFTR | basolateral membrane permeabilised | 25 to 50 µM
CC(C)[C@H](NC(=O)c1cc(C(=O)O)cc([C@H]2CCN[C@@H]2C(=O)O)c1)C(=O)O | Glutamate receptor ionotropic, kainate 1 (Rattus norvegicus, UniProt P22756) | binding, radioligand binding | Sf9 membranes | homomeric receptor, added: [3H]SYM2081 | 4.41 ± 0.63 µM
O=C(OCc1ccccc1)c1ccccc1OC1CCNCC1 | Glycylpeptide N-tetradecanoyltransferase (Plasmodium falciparum, UniProt Q9U419) | enzyme activity, inhibitor, CPM fluorescence | – | added: substrate 4.0 µM | > 100 µM
CCCCCCCCC(CCC=CCCC(CCCCCCCC)C(=O)OCC1(CO)CC(=C(C)C)C(=O)O1)C(=O)OCC1(CO)CC(=C(C)C)C(=O)O1 (racemic) | PRKCD | binding, [3H]PDBu competition | – | added: phosphatidylserine 100 µg/mL | 0.00267 ± 0.00059 µM
N=C(N)NCCC[C@H](NC(=O)c1cc(C(=O)O)cc([C@H]2CCN[C@@H]2C(=O)O)c1)C(=O)O | NMDA receptor (rat) | binding, radioligand binding | rat cortical synaptosomes | added: [3H]CGP39653 | 10 to 50 µM
COC(=O)C1(C)C=C(c2ncc(C)o2)C(=O)CC1 (stereo not shown) | MAPK8 | D-peptide displacement, fluorescence polarization | – | – | 112 ± 32.7 µM
CC(C)C[C@H](NC(=O)c1cc(C(=O)O)cc([C@H]2CCN[C@@H]2C(=O)O)c1)C(=O)O | Glutamate receptor ionotropic, kainate 3 (Rattus norvegicus, UniProt P42264) | binding, radioligand binding | Sf9 membranes | homomeric receptor, added: [3H]kainate | 20.6 ± 3.1 µM
CC1(C)C(=CC=C2CCCC(C=CC3=[N+](CCCCS(=O)(=O)O)c4ccc(S(=O)(=O)O)cc4C3(C)C)=C2Oc2ccc(S(=O)(=O)O)cc2)N(CCCCCC(=O)NCCCC[C@H](NC(=O)N[C@@H](CCC(=O)O)C(=O)O)C(=O)O)c2ccc(S(=O)(=O)[O-])cc21 | FOLH1 (Homo sapiens, UniProt Q04609) | enzyme activity, inhibitor | – | compound in water, added: [3H]NAAG 30 nM | 7e-05 ± 5e-06 µM
CCCCCCCCC(CCCCCCC=CCCCCCCC(CCCCCCCC)C(=O)OCC1(CO)CC(=C(C)C)C(=O)O1)C(=O)OCC1(CO)CC(=C(C)C)C(=O)O1 (racemic) | PRKCD | binding, [3H]PDBu competition | – | added: phosphatidylserine 100 µg/mL | 0.0166 ± 0.0021 µM
N#Cc1ccc(S(=O)(=O)NCc2cn(CB(O)O)nn2)cc1 | KPC-2 (Klebsiella pneumoniae, UniProt Q9F663) | inhibitor, competition kinetics | – | 5 min preincubation, added: nitrocefin 100 µM | 0.001 ± 0.0001 µM
CCCCOC(=O)[C@@]12C[C@@H]1[C@@H](n1cnc3c(NC)nc(C#Cc4ccc(Cl)s4)nc31)[C@H](O)[C@@H]2O | SLC6A2 (Homo sapiens, UniProt P23975) | binding, radioligand binding | HEK293 | added: [3H]nisoxetine | 4.9 µM
CCOC(=O)NC(=O)/C(C#N)=C/c1ccc(Cl)c(C(F)(F)F)c1 | PRKCA-binding protein, PDZ domain (Pick1, Rattus norvegicus, UniProt Q9EP80) | binding, fluorescence polarization | – | added: labelled hDAT C-terminal peptide | 7.2 ± 0.7 µM

Repeated from above:
SMILES | target | test | system | conditions | Ki
COC(=O)C1(C)C=C(C(=O)Nc2ccccc2)C(=O)CC1 (stereo not shown) | MAPK8 | D-peptide displacement, fluorescence polarization | – | – | > 200 µM
